{"data": "Results from different studies", "note": "Several values in a cell are separate wells, animals, samples, runs or records. ± marks the error that the study gave.", "chain of UniProt P49327 (whole entry, looked up)": "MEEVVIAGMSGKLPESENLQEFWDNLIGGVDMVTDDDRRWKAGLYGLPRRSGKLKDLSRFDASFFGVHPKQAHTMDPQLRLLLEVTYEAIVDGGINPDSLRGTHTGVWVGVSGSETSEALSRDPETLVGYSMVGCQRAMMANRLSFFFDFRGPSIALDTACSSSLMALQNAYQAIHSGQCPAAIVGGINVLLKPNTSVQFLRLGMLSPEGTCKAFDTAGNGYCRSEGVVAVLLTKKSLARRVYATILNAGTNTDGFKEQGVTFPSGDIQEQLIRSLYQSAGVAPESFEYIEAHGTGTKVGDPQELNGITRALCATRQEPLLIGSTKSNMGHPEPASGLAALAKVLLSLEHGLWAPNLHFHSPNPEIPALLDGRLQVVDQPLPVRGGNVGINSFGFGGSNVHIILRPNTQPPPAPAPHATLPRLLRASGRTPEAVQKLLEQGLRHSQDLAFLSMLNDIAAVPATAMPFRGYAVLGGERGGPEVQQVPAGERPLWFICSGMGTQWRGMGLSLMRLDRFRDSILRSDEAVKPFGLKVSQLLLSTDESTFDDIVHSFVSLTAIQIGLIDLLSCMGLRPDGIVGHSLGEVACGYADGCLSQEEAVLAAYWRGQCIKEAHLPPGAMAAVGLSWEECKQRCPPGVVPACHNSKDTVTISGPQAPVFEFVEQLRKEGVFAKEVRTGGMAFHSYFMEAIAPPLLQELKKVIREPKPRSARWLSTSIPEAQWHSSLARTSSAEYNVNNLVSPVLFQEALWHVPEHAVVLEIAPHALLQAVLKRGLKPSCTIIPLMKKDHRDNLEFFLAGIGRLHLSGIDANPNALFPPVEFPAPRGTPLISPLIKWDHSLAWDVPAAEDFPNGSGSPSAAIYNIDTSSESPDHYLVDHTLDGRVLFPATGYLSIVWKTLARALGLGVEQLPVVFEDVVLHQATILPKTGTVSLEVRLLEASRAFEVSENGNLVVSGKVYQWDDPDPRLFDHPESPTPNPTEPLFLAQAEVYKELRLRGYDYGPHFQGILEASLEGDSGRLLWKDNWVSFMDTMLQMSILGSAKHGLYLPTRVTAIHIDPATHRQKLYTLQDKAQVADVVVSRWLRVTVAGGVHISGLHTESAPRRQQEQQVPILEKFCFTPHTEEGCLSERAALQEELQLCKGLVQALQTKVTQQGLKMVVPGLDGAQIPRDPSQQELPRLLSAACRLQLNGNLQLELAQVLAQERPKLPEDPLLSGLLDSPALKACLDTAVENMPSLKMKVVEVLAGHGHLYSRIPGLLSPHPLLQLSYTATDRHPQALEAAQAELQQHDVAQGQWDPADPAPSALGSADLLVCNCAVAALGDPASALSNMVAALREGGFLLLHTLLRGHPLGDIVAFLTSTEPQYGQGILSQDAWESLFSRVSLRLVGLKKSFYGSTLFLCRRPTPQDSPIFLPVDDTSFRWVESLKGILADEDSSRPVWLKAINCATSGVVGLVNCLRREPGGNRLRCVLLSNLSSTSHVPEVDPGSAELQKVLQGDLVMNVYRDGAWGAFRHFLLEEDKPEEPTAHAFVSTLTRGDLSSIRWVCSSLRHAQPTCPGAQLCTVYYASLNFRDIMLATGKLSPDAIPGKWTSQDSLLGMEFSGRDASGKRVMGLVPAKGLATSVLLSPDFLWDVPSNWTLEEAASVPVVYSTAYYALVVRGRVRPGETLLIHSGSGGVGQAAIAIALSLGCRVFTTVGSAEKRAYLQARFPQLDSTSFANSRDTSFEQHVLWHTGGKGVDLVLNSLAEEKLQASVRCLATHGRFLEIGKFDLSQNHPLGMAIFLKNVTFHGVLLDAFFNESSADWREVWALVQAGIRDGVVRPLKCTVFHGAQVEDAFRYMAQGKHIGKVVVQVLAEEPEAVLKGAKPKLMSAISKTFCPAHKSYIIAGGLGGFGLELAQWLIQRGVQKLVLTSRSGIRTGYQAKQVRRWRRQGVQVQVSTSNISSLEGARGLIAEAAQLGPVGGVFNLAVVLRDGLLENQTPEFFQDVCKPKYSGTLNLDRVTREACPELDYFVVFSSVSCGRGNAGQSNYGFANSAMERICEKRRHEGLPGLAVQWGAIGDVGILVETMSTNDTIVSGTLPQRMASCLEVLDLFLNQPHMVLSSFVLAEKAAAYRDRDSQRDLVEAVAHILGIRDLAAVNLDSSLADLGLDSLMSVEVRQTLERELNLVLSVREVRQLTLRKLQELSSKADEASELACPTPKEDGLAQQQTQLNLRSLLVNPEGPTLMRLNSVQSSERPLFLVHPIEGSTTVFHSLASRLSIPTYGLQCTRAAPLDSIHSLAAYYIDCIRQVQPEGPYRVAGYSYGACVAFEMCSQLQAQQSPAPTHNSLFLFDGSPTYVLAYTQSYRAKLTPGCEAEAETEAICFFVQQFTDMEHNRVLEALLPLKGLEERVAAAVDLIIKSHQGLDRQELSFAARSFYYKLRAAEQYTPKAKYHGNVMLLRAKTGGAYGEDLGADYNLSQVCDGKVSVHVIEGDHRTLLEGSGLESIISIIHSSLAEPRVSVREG"}
{"SMILES": "O=C(Nc1ccccc1)C1CCN(C(=O)Oc2cccnc2)CC1", "assay": "adverse event reporting", "test system": "healthy women", "setting": "oral, 20 mg, 7 days", "endpoint": "subjects with decreased appetite", "result": "0%"}
{"SMILES": "CC(C)[C@@H]1NC(=O)CNC(=O)[C@H](CC(N)=O)NC(=O)[C@H](CCCNC(=N)N)NC(=O)[C@H](Cc2ccc(O)cc2)NC(=O)[C@H](C(C)C)NC(=O)[C@@H](NC(=O)[C@@H](NC(=O)[C@H](CC(N)=O)NC(=O)[C@H](Cc2c[nH]c3ccccc23)NC(=O)[C@H](C)NC(=O)[C@H](Cc2ccccc2)NC(=O)CN)C(C)C)CSSC[C@@H](C(=O)N[C@@H](Cc2cnc[nH]2)C(=O)N[C@@H](CCCNC(=N)N)C(=O)N[C@@H](CCCNC(=N)N)C(=O)N[C@@H](C)C(=O)N[C@@H](CC(N)=O)C(N)=O)NC(=O)[C@H](C(C)C)NC(=O)[C@H](CCCNC(=N)N)NC1=O", "test system": "ICR mouse, blood", "setting": "intramammary, 10 mg/kg, day 5, 3 d dosing", "endpoint": "glucose", "result": "1.52 ± 0.06 mmol/L"}
{"SMILES": "CCN1[C@@H](C(=O)NC23CCC(C(=O)O)(CC2)CC3)[C@H](c2cccc(Cl)c2F)[C@]2(C(=O)Nc3cc(Cl)ccc32)C12CCCCC2", "test system": "patients with advanced solid tumours", "setting": "oral, 100 mg", "endpoint": "grade ≥3 Thrombocytopenia incidence", "result": "18.2%"}
{"SMILES": "CCCC(CCC)NC(=O)c1ccc2c(c1)OCO2", "test system": "Swiss albino CD-1 mice, male, bone marrow", "setting": "intraperitoneal, 350 mg/kg, 24 h", "endpoint": "micronucleated PCEs", "result": "0.1%"}
{"SMILES": "Clc1ccccc1C1(c2ccnc(-c3ccccc3)n2)CCNCC1", "tested on": "Vero-E6", "assay": "CellTiter-Glo ATP", "setting": "72 h, first round 5-point", "how to read": "relative to: DMSO 0%, hyamine -100%, more negative, more toxic", "endpoint": "maximum response", "result": "-4.63%"}
{"SMILES": "O=C1Nc2cc3[nH]nc(-c4ccncc4)c3cc2CN1Cc1ccccc1", "assay": "CTCAE v4.03", "test system": "advanced solid tumour patients", "setting": "intravenous, 0.45 mg/kg, schedules 1/2", "endpoint": "patients with abdominal pain", "result": "0%"}
{"SMILES": "[NH2][Pt]([NH2])([OH])([OH])([Cl])[Cl]", "assay": "ICP-MS, refers to: platinum", "test system": "blood-brain barrier spheroids", "setting": "1 µM, 3 h, 37 °C", "endpoint": "uptake", "result": "0.2 ng/mL"}
{"SMILES": "NC(=O)[C@H]1CCN(c2ncnc(N)c2F)C[C@@H]1N1CCC[C@@H](Nc2cc(Cl)cc(C(F)(F)F)c2)C1=O", "test system": "B-cell malignancy patients", "setting": "oral, 82 mg twice daily, dose", "endpoint": "grade ≥3 lymphopenia", "result": "0%"}
{"SMILES": "O=S(=O)(Nc1ccccc1)c1ccc(NC(=S)Nc2ccccc2)cc1", "assay": "refers to: RDW", "test system": "male mouse, blood", "setting": "oral, 20 mg/kg daily, 14 days", "endpoint": "blood cell fraction", "result": "16.3%"}
{"SMILES": "C[C@@H](NC(=O)N1C(=O)[C@H](Cc2ccnc(N)c2)[C@H]1C(=O)O)C1CCCCC1", "test system": "healthy Chinese adults", "setting": "continuous intravenous infusion, 1.0 mg/kg/h, 5.0 days", "endpoint": "related decreased WBC", "result": "0%"}
{"SMILES": "C[C@]1(CO)Cc2ncn(-c3ccc(C#N)c(Cl)c3)c2C(=O)O1", "assay": "investigator-assessed", "test system": "human, Chinese", "setting": "20 mg single dose", "endpoint": "subjects with drug-related TEAEs", "result": "16.7%"}
{"SMILES": "C[C@]1(O)C[C@@](N)(c2ccc(-c3nc4n(c3-c3ccccc3)COc3ccncc3-4)cc2)C1", "test system": "human, advanced or metastatic solid tumours", "setting": "dose not given, all patients, any grade", "endpoint": "patients with Hyperphosphatemia TEAE", "result": "23.5%"}
{"SMILES": "O=[N+]([O-])c1ccc2c(c1)S(=O)(=O)C=C2", "test system": "male C57BL/6 mice, blood", "setting": "intraperitoneal, 20 mg/kg, day 8, group average", "endpoint": "mean corpuscular haemoglobin", "result": "15.1 pg"}
{"SMILES": "Cn1c(-c2ccc(C(N)=O)cc2F)nnc1C(C)(C)Oc1c(F)cc(Cl)cc1F", "test system": "human", "setting": "oral, 6 mg, single ascending dose", "endpoint": "gastrointestinal disorder TEAE", "result": "16.7%"}
{"SMILES": "COc1ccc([C@@H]2CC(=O)c3c(O)cc(O)cc3O2)cc1O", "test system": "Sprague-Dawley rat, male, obese, faeces", "setting": "oral, 100 mg/kg neohesperidin, 36-48 h", "endpoint": "faecal excretion", "result": "1640 ± 1090 ng"}
{"SMILES": "COc1ncnn2ccc(-c3cnc4nc(C)n(Cc5nnc([C@@H](C)F)o5)c4c3)c12", "test system": "human", "setting": "oral, dose not given, grade 2", "endpoint": "patients with vomiting", "result": "14.3%"}
{"SMILES": "CC[C@H](C)[C@H](NC(=O)[C@H](Cc1ccccc1)NC(=O)[C@H](CCC(=O)O)NC(=O)[C@H](CCCNC(=N)N)NC(=O)[C@H](C)NC(=O)[C@H](C)NC(=O)[C@H](CCC(N)=O)NC(=O)[C@H](CCC(=O)O)NC(=O)[C@H](CCC(=O)O)NC(=O)[C@H](CC(C)C)NC(=O)[C@H](Cc1ccc(O)cc1)NC(=O)[C@H](CO)NC(=O)[C@H](CO)NC(=O)[C@@H](NC(=O)[C@H](CC(=O)O)NC(=O)[C@H](CO)NC(=O)[C@@H](NC(=O)[C@H](Cc1ccccc1)NC(=O)[C@@H](NC(=O)CNC(=O)[C@H](CCC(=O)O)NC(=O)[C@H](C)NC(=O)CCc1cnc[nH]1)[C@@H](C)O)[C@@H](C)O)C(C)C)C(=O)N[C@@H](C)C(=O)N[C@@H](Cc1c[nH]c2ccccc12)C(=O)N[C@@H](CC(C)C)C(=O)N[C@H](C(=O)N[C@@H](CCCNC(=N)N)C(=O)NCC(=O)N[C@@H](CCCNC(=N)N)C(=O)N[C@@H](CCCCNC(=O)COCCOCCNC(=O)COCCOCCNC(=O)CC[C@H](NC(=O)CCCCCCCCCCCCCCCCC(=O)O)C(=O)O)C(=O)NCC(=O)NCC(=O)N[C@@H](CO)C(=O)N[C@@H](CCCCNC(=O)[C@H](CCCCNC(=O)[C@H](CCCCNc1c(NCCCCCN(O)C(=O)CCC(=O)NCCCCCN(O)C(=O)CCC(=O)NCCCCCN(O)C(C)=O)c(=O)c1=O)Nc1c(NCCCCCN(O)C(=O)CCC(=O)NCCCCCN(O)C(=O)CCC(=O)NCCCCCN(O)C(C)=O)c(=O)c1=O)NC(=O)[C@H](CCCCNc1c(NCCCCCN(O)C(=O)CCC(=O)NCCCCCN(O)C(=O)CCC(=O)NCCCCCN(O)C(C)=O)c(=O)c1=O)Nc1c(NCCCCCN(O)C(=O)CCC(=O)NCCCCCN(O)C(=O)CCC(=O)NCCCCCN(O)C(C)=O)c(=O)c1=O)C(=O)O)C(C)C [zirconium-89 labelled]", "assay": "ex vivo gamma counting", "test system": "Sprague-Dawley rat, male, intestine", "setting": "intravenous, 1 nmol, 24 h", "endpoint": "tissue uptake", "result": "0.374 %ID/g and 0.436 %ID/g and 0.306 %ID/g and 0.302 %ID/g and 0.384 %ID/g"}
{"SMILES": "c1csc(CNc2cc[nH]n2)c1", "assay": "micronucleus", "test system": "CD-1 mouse Hsd:ICR(CD-1), male, bone marrow", "setting": "oral, 250 mg/kg/day, 3 days", "endpoint": "micronucleated PCE per 1000 PCE", "result": 1}
{"SMILES": "CC(C)CC(=O)OC[C@H]1O[C@@](C#N)(c2ccc3c(N)ncnn23)[C@H](O)[C@@H]1O", "test system": "human plasma", "setting": "9 µM", "endpoint": "fraction unbound", "result": 0.198}
{"SMILES": "CC1(C)[C@H](C(=O)OCc2cccc(Oc3ccccc3)c2)[C@@H]1C=C(Cl)Cl", "assay": "IVIVE scaling", "test system": "human adult", "endpoint": "hepatic intrinsic clearance", "result": "668 L/h/kg liver"}
{"SMILES": "COc1cc2c(Oc3ccc4[nH]c(C)cc4c3F)ccnc2cc1OCC1(N)CC1", "test system": "paediatric recurrent refractory sarcoma", "setting": "10 mg", "endpoint": "grade 3 Epistaxis", "result": "0%"}
{"SMILES": "COc1ccc(-c2c(-c3ccc(C#N)c(F)c3)nc(N3CCC(N)CC3)n(C)c2=O)cc1F", "assay": "refers to: Metastasis", "test system": "human patients", "setting": "oral, dose not given, dose escalation, NG", "endpoint": "serious adverse event incidence", "result": "2%"}
{"SMILES": "COc1ncccc1-c1cnn2ccc(N3CCN(C(=O)OC(C)C)CC3)nc12", "test system": "mouse open field, plasma", "setting": "oral, 10 mg/kg, 60 min", "endpoint": "free concentration", "result": "76 nM"}
{"SMILES": "COc1cccc(Oc2ccccc2NC(=O)CNC(=O)c2cccc3ccccc23)c1", "test system": "esterase-deficient SCID mice, male, blood", "setting": "oral, 100 mg/kg/day, 14 days, toxicity study", "endpoint": "mean corpuscular volume", "result": "46 fL and 44 fL and 48 fL"}
{"SMILES": "C[C@H]1CN(c2n[nH]c3nc(N[C@H]4CC[C@H](NS(=O)(=O)CCC(F)(F)F)CC4)ncc23)CCO1", "tested on": "Fatty acid synthase (FASN, Homo sapiens, UniProt P49327)", "assay": "inhibitor, Kinobeads competition profiling", "setting": "20 µM", "how to read": "relative to: vehicle", "endpoint": "relative abundance", "result": 1.19}
{"SMILES": "CN1CCCC2(C1)CN(Cc1cccnc1)c1ccc(C(=O)NCC3CCCCC3)cc12 (stereo not drawn)", "tested on": "Vero-E6", "assay": "CellTiter-Glo ATP", "setting": "concentration not given, 72 h, retest 8-point duplicates", "how to read": "relative to: DMSO 0%, hyamine -100%, more negative, more toxic", "endpoint": "cytotoxicity efficacy", "result": "0%"}
{"SMILES": "Cc1cc(C)c(CNC(=O)c2cc(Cl)c3c(c2C)O[C@@](C)([C@H]2CC[C@H](N(C)C)CC2)O3)c(=O)[nH]1", "test system": "human, relapsed/refractory NHL", "setting": "concentration not given, treatment-related TEAEs, grade 5", "endpoint": "Anaemia incidence", "result": "0%"}
